Measurements of several laboratories.
B1: BGLU7 (Oryza sativa, UniProt Q75I93); chain AAVPKPNWLGGLSRAAFPKRFVFGTATSAYQVEGMAASGGRGPSIWDAFAHTPGNVAGNQNGDVATDQYHRYKEDVNLMKSLNFDAYRFSISWSRIFPDGEGRVNQEGVAYYNNLINYLLQKGITPYVNLYHYDLPLALEKKYGGWLNAKMADLFTEYADFCFKTFGNRVKHWFTFNEPRIVALLGYDQGTNPPKRCTKCAAGGNSATEPYIVAHNFLLSHAAAVARYRTKYQAAQQGKVGIVLDFNWYEALSNSTEDQAAAQRARDFHIGWYLDPLINGHYPQIMQDLVKDRLPKFTPEQARLVKGSADYIGINQYTASYMKGQQLMQQTPTSYSADWQVTYVFAKNGKPIGPQANSNWLYIVPWGMYGCVNYIKQKYGNPTVVITENGMDQPANLSRDQYLRDTTRVHFYRSYLTQLKKAIDEGANVAGYFAWSLLDNFEWLSGYTSKFGIVYVDFNTLERHPKASAYWFRDMLKH
B2: ADSL R303C (Homo sapiens, UniProt P30566); chain MAAGGDHGSPDSYRSPLASRYASPEMCFVFSDRYKFRTWRQLWLWLAEAEQTLGLPITDEQIQEMKSNLENIDFKMAAEEEKRLRHDVMAHVHTFGHCCPKAAGIIHLGATSCYVGDNTDLIILRNALDLLLPKLARVISRLADFAKERASLPTLGFTHFQPAQLTTVGKRCCLWIQDLCMDLQNLKRVRDDLRFRGVKGTTGTQASFLQLFEGDDHKVEQLDKMVTEKAGFKRAFIITGQTYTRKVDIEVLSVLASLGASVHKICTDIRLLANLKEMEEPFEKQQIGSSAMPYKRNPMRSECCCSLARHLMTLVMDPLQTASVQWFERTLDDSANRRICLAEAFLTADTILNTLQNISEGLVVYPKVIERRIRQELPFMATENIIMAMVKAGGSRQDCHEKIRVLSQQAASVVKQEGGDNDLIERIQVDAYFSPIHSQLDHLLDPSSFTGRASQQVQRFLEEEVYPLLKPYESVMKVKAELCL
B3: bglA A17S/S39T/T105V (Acetivibrio thermocellus, UniProt P26208); chain MSKITFPKDFIWGSATSAYQIEGAYNEDGKGESIWDRFTHTPGNIADGHTGDVACDHYHRYEEDIKIMKEIGIKSYRFSISWPRIFPEGTGKLNQKGLDFYKRLVNLLLENGIMPAITLYHWDLPQKLQDKGGWKNRDTTDYFTEYSEVIFKNLGDIVPIWFTHNEPGVVSLLGHFLGIHAPGIKDLRTSLEVSHNLLLSHGKAVKLFREMNIDAQIGIALNLSYHYPASEKAEDIEAAELSFSLAGRWYLDPVLKGRYPENALKLYKKKGIELSFPEDDLKLISQPIDFIAFNNYSSEFIKYDPSSESGFSPANSILEKFEKTDMGWIIYPEGLYDLLMLLDRDYGKPNIVISENGAAFKDEIGSNGKIEDTKRIQYLKDYLTQAHRAIQDGVNLKAYYLWSLLDNFEWAYGYNKRFGIVHVNFDTLERKIKDSGYWYKEVIKNNGF
UniProt O31616, sequence (whole entry, looked up): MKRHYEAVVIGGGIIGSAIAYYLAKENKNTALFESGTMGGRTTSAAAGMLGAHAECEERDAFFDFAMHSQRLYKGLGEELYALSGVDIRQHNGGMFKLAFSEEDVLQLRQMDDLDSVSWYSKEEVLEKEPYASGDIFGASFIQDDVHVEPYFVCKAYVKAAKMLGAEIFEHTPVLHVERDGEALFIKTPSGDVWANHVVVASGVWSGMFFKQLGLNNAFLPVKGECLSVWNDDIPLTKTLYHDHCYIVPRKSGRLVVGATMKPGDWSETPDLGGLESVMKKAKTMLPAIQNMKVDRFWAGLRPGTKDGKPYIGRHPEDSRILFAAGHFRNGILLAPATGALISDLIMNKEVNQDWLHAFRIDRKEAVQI
UniProt P0CJ63, sequence (whole entry, looked up): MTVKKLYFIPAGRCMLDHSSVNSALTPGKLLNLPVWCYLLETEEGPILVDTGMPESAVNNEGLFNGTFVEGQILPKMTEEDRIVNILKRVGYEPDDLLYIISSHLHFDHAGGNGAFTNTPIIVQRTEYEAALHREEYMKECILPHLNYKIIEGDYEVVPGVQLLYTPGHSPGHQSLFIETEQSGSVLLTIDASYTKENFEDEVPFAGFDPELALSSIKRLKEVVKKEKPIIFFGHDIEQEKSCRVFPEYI

pdc E473Q (Zymomonas mobilis)
Km (CC(=O)C(=O)O; steady-state kinetics; pH 6, 30 °C): 400 µM

B1 (BGLU7)
Km (CC(C)(C#N)O[C@@H]1O[C@H](CO)[C@@H](O)[C@H](O)[C@H]1O; steady-state kinetics; pH 6, 30 °C, not purified): 36000 µM

B2 (ADSL R303C)
Km (Nc1c(C(=O)N[C@@H](CC(=O)O)C(=O)O)ncn1[C@@H]1O[C@H](COP(=O)(O)O)[C@@H](O)[C@H]1O; steady-state kinetics; pH 7.4, 25 °C): 7.8 µM

enzyme (Bacillus thuringiensis, UniProt P0CJ63)
Km (CCCC(=O)N[C@H]1CCSC1=O; steady-state kinetics; pH 8, added: CoCl2 0.2 mM, DTNB 2 mM): 1830 µM

B3 (bglA A17S/S39T/T105V)
Km (O=[N+]([O-])c1ccc(O[C@@H]2O[C@H](CO)[C@@H](O)[C@H](O)[C@H]2O)cc1; steady-state kinetics; pH 5.5, 60 °C): 4610 µM

insulin human
fold change (item: NLGN1 mRNA; uninfected mouse, brain; i.p., dose not given; baseline: PBS): 1.24

fcl (Campylobacter jejuni, UniProt Q0P8I6)
Km (Nc1nc2c(ncn2[C@@H]2O[C@H](COP(=O)(O)OP(=O)(O)O[C@H]3O[C@@H](CCO)C(=O)[C@@H](O)[C@@H]3O)[C@@H](O)[C@H]2O)c(=O)[nH]1; steady-state kinetics; pH 7.5, 25 °C, apparent): 93 µM

Cj1438c (Campylobacter jejuni, UniProt Q0P8H6)
Km (N[C@@H](CO)COP(=O)(O)O; steady-state kinetics; pH 8, 25 °C, apparent): 57 µM

enzyme (Cyanidioschyzon merolae, UniProt M1V8C6)
Km (Nc1ncnc2c1ncn2[C@@H]1O[C@H](COP(=O)(O)OP(=O)(O)OP(=O)(O)O)[C@@H](O)[C@H]1O; steady-state kinetics; pH 7.8, 30 °C): 46 µM

enzyme (Bacillus subtilis, UniProt O31616)
Km (O=C(O)CNCP(=O)(O)O; steady-state kinetics; pH 8, 25 °C): 33900 µM
